Published values from different studies.
Compare with care: the assays were run in different laboratories.
MAP3K10: Mitogen-activated protein kinase kinase kinase 10 (MAP3K10, Homo sapiens, UniProt Q02779)
UniProt Q02779, sequence (whole entry, looked up): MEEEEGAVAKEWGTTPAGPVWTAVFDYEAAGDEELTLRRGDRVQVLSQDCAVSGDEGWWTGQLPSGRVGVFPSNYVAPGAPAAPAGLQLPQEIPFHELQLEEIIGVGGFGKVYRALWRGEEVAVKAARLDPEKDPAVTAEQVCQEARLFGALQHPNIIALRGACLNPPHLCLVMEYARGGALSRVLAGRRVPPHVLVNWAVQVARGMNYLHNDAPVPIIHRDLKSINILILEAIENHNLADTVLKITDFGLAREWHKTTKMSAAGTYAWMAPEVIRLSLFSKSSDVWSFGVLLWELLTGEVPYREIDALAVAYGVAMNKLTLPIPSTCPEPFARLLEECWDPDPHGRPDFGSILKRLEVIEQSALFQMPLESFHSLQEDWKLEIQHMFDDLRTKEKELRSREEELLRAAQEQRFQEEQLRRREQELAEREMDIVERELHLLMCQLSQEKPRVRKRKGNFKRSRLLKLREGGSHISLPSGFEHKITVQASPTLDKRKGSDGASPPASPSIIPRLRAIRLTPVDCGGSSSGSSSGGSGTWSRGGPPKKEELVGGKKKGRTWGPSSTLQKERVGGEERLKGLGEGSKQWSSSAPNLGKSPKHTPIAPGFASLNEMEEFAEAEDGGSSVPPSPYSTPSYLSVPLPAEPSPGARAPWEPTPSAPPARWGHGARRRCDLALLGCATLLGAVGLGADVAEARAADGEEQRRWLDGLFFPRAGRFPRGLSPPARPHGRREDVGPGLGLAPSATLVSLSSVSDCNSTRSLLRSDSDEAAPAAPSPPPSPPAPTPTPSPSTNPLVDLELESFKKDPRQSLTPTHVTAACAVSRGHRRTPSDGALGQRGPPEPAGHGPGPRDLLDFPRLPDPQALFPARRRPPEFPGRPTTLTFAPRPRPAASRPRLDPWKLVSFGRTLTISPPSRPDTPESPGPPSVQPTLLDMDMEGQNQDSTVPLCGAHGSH
UniProt P57058, sequence (whole entry, looked up): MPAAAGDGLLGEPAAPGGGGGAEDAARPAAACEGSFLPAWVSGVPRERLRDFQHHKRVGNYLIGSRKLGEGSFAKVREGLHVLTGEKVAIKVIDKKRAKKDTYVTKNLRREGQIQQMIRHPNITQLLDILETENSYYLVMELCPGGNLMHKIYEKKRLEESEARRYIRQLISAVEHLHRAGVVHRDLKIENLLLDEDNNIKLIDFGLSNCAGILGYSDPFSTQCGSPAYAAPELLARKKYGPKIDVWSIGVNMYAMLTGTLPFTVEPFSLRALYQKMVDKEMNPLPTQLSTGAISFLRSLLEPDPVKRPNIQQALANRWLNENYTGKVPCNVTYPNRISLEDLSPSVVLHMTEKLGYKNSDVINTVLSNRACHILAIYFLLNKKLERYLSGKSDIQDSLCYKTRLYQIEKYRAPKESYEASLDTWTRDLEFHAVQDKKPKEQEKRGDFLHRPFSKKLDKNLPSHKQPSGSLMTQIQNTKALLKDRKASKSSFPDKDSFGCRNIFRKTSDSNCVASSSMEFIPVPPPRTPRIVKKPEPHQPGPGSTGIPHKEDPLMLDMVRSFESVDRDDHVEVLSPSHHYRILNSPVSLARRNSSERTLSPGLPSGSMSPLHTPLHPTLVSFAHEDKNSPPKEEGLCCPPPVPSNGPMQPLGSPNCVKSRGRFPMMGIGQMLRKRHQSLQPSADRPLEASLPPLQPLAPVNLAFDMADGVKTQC
UniProt P54760, sequence (whole entry, looked up): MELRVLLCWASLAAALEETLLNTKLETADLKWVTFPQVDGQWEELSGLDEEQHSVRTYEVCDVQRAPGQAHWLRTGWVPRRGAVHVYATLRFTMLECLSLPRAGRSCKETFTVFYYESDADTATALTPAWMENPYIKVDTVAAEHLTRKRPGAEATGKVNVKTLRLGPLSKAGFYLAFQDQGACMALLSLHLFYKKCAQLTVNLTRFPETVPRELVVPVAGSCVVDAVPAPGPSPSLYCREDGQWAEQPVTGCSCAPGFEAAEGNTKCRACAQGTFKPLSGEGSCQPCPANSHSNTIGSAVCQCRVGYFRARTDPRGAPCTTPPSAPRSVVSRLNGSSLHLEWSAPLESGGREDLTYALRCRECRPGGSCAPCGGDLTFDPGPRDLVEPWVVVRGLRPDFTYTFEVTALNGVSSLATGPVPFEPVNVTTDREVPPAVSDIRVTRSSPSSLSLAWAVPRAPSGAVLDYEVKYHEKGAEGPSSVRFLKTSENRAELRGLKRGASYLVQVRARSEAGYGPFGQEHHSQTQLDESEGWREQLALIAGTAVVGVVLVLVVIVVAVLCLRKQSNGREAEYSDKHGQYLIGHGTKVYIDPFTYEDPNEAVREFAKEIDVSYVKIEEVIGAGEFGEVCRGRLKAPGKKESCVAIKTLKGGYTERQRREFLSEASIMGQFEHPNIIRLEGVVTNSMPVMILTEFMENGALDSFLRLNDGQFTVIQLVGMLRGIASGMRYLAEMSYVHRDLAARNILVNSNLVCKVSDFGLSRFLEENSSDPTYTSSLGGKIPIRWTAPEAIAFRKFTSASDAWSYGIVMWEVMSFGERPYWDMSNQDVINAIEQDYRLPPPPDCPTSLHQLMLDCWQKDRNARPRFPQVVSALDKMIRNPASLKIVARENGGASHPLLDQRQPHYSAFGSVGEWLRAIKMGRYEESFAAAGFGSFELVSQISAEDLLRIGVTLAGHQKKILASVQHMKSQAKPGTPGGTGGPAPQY
UniProt Q92630, sequence (whole entry, looked up): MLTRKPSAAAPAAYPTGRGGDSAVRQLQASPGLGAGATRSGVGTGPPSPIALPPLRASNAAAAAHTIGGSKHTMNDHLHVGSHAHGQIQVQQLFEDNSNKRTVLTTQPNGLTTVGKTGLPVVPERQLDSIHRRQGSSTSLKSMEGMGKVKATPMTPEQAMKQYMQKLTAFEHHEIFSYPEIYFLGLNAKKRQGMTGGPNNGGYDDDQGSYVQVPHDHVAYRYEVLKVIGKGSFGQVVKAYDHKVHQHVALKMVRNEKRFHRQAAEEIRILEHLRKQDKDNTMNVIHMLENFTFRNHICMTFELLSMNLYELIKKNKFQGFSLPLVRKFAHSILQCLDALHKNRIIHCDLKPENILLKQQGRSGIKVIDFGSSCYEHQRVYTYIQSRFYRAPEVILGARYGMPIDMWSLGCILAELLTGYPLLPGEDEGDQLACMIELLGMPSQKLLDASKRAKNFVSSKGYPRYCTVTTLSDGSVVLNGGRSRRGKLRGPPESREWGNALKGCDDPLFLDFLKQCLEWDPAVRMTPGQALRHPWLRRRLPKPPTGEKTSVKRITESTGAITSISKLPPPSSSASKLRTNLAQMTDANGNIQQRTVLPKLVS
UniProt Q7L7X3, sequence (whole entry, looked up): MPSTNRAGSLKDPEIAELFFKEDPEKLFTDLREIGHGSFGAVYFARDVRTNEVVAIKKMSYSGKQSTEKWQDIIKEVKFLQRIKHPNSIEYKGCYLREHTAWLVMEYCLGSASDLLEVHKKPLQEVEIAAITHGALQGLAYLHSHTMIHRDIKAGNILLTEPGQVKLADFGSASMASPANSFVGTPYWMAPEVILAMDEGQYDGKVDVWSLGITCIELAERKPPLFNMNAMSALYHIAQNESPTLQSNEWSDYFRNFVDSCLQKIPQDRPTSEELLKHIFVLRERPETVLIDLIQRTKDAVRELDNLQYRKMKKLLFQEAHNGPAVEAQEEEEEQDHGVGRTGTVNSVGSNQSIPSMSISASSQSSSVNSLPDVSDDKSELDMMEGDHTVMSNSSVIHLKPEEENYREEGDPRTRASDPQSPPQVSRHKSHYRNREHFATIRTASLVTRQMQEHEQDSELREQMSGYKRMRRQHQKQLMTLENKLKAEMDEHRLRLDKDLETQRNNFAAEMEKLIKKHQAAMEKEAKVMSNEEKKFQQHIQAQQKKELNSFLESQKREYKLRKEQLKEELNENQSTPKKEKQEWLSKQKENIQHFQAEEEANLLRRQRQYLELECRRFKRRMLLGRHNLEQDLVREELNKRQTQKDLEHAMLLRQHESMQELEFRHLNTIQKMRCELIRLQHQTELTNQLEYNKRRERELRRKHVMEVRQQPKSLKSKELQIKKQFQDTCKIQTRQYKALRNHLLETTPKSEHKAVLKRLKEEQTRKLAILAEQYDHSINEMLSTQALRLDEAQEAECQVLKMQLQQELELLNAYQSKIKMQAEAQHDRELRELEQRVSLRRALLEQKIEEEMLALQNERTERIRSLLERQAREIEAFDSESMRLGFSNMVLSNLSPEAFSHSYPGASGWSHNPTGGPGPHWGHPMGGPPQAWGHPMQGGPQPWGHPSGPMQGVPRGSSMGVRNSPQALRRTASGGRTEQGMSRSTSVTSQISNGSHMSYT
UniProt Q8TDC3, sequence (whole entry, looked up): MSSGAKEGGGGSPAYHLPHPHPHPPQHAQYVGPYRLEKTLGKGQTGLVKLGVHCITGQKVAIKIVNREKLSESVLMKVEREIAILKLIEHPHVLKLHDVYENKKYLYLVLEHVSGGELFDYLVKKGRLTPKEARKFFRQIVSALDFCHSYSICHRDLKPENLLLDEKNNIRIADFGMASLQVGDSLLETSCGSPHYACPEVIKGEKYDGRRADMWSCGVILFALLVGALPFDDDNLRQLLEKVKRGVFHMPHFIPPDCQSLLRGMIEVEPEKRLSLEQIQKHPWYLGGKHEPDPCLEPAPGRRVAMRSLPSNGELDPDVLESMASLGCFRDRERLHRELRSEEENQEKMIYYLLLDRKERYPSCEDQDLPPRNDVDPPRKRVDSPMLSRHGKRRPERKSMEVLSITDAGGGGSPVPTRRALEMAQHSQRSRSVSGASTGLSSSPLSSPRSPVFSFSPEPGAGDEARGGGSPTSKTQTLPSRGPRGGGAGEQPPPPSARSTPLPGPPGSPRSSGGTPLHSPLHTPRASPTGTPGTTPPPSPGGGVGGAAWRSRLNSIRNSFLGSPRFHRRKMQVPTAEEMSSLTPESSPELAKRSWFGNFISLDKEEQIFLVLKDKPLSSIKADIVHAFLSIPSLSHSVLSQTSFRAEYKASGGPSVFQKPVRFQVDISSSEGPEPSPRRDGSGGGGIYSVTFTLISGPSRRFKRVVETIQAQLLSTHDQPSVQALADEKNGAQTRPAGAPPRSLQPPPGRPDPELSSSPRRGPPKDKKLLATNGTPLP

For O=C(O)c1ccc(Nc2ncc3c(n2)-c2ccc(Cl)cc2C(c2c(F)cccc2F)=NC3)cc1, the remaining activity was 101% (human PKBα(h); kinase activity; 1 µM).
Cc1cc(Nc2cc(N3CCN(C)CC3)nc(Sc3ccc(NC(=O)C4CC4)cc3)n2)[nH]n1 gave a remaining activity of 98% (PRKCH (Homo sapiens, UniProt P24723); kinase activity, KinaseProfiler; 0.03 µM, species human; reference: control).
C=CC(=O)N1CCC[C@@H](n2nc(-c3ccc(Oc4ccccc4)cc3)c3c(N)ncnc32)C1 gave a remaining activity of 98.7% (EPHB4 (Homo sapiens, UniProt P54760); 10 µM).
For CNc1ncc2c(/C=C/C(=O)N3CCC(OC)CC3)nn(Cc3cccc(C(F)(F)F)c3)c2n1, the remaining activity was 100% (MAP3K10; kinase activity, inhibitor; 1 µM; reference: untreated control).
O=C1NC(=O)/C(=C/c2ccc(-c3ccc(F)cc3O)o2)S1 gave a remaining activity of 56% (BRSK1 (Homo sapiens, UniProt Q8TDC3); enzyme activity; 10 µM).
N[C@@H]1CC[C@@H](c2ccc(Cl)c(Cl)c2)c2ccccc21 gave a remaining activity of 104% (SLC6A3 (Homo sapiens, UniProt Q01959, F326A); dopamine uptake; 0.0001 µM, 0.03333 h, F326A mutant, together with: [3H]dopamine; reference: no inhibitor).
For COc1cc(-c2cncc3c2CN(C)Cc2cc(N4CCNCC4)ccc2-3)cc(OC)c1OC, the remaining activity was 117% (MAP3K10; kinase activity; 1 µM, human enzyme, together with: ATP 10 µM; reference: DMSO control).
For COc1cc(F)ccc1-c1ncnc(Nc2cccc(C[S@](C)(=N)=O)c2)n1, the remaining activity was 83% (TAOK1 (Homo sapiens, UniProt Q7L7X3); kinase activity; 10 µM, together with: 10 µM ATP).
For COc1cc(N2CCN(C)CC2)ccc1Nc1nc(N)n(C(=S)NCc2c(Cl)cccc2Cl)n1, the remaining activity was 0% (HUNK (Homo sapiens, UniProt P57058); enzyme activity; 10 µM; reference: control).
COc1cc(Nc2ncc3c(n2)-c2ccc(Cl)cc2C(c2c(F)cccc2OC)=NC3)ccc1C(=O)O gave a remaining activity of 11% (HCK; kinase activity; 1 µM).
For COc1cc(N2CCN(C)CC2)ccc1Nc1nc(N)n(C(=O)NCc2c(Cl)cccc2Cl)n1, the remaining activity was 24% (DYRK2 (Homo sapiens, UniProt Q92630); enzyme activity; 10 µM; reference: control).
O=C(NC1CCC1)c1ccc2nc(-c3cccc(NS(=O)(=O)NCCN4CCCCC4)c3)cn2c1 gave a remaining activity of 100% (NEK5 (Homo sapiens, UniProt Q6P3R8); enzyme activity; 10 µM).

Repeated from above:
COc1cc(Nc2ncc3c(n2)-c2ccc(Cl)cc2C(c2c(F)cccc2OC)=NC3)ccc1C(=O)O gave a remaining activity of 11% (HCK; kinase activity; 1 µM).
For COc1cc(N2CCN(C)CC2)ccc1Nc1nc(N)n(C(=S)NCc2c(Cl)cccc2Cl)n1, the remaining activity was 0% (HUNK (Homo sapiens, UniProt P57058); enzyme activity; 10 µM; reference: control).
